{"data": "Measured values of several laboratories", "cell line": "BEAS-2B", "note": "Lines come from different studies, so protocols differ. Numbers after ± are the reported error."}
{"Compound": "COc1ccc(S(=O)(=O)Nc2ccc(CCCC(=O)O[C@H]3c4cc5c(cc4[C@@H](c4cc(OC)c(OC)c(OC)c4)[C@H]4C(=O)OC[C@@H]43)OCO5)cc2)cc1", "assay": "cell growth or viability, CCK-8", "conditions": "24 h", "IC50 [µM]": 81.2}
{"Compound": "COc1c(O)cc2oc3c(Cl)c(O)c(CC=C(C)C)c(O)c3c(=O)c2c1CC=C(C)C", "assay": "cell growth or viability", "IC50 [µM]": "> 40"}
{"Compound": "Cc1c(C)c(-c2ccc(-c3ccccc3)cc2)[c-](C)c1C.Cc1c(C)c(-c2ccc(-c3ccccc3)cc2)[c-](C)c1C.[Cl-].[Cl-].[Cl-].[Cl-].[Ir+3].[Ir+3] (stereo not shown)", "assay": "cell growth, MTT", "conditions": "24 h", "IC50 [µM]": "> 50"}
{"Compound": "CN(C)c1ccc(/C=C2\\Oc3cc(O)ccc3C2=O)cc1", "assay": "cell growth or viability, MTT", "IC50 [µM]": "> 100"}
{"Compound": "CCN(CC)c1ccc2c(c1)Oc1cc(N(CC)CC)ccc1C21c2ccccc2C(=O)N1N=Cc1c[c-]c(-c2ccccn2)cc1.Cc1c(C)c(-c2ccc(-c3ccccc3)cc2)[c-](C)c1C.[Cl-].[Ir+3]", "assay": "cell growth, MTT", "conditions": "24 h", "IC50 [µM]": "30.12 ± 0.3"}
{"Compound": "CC(=O)O[C@H]1C[C@H](O[C@H]2[C@@H](O)C[C@H](O[C@H]3[C@@H](O)C[C@H](O[C@H]4CC[C@@]5(C)[C@H](CC[C@@H]6[C@@H]5CC[C@]5(C)[C@@H](C7=CC(=O)OC7)CC[C@]65O)C4)O[C@@H]3C)O[C@@H]2C)O[C@H](C)[C@H]1O[C@@H]1O[C@H](CO)[C@@H](O[C@@H]2O[C@H](CO)[C@@H](O)[C@H](O)[C@H]2O)[C@H](O)[C@H]1O", "assay": "cell growth or viability, MTT", "conditions": "48 h", "IC50 [µM]": 0.45}
{"Compound": "COc1c(O)cc2oc3cc4c(c(O)c3c(=O)c2c1CC=C(C)C)C=CC(C)(C)O4", "assay": "cell growth or viability", "IC50 [µM]": 18.6}
{"Compound": "O=C(Nc1ccc([N+](=O)[O-])cc1)C(c1ccc(C(F)(F)F)cc1)N(Cc1ccccc1)C(=O)c1ccc2ccccc2n1 (stereo not shown)", "conditions": "48 h", "IC50 [µM]": "40.7 ± 2.8"}
{"Compound": "COc1c(O)cc2oc3c(Br)c(O)c(CCC(C)C)c(O)c3c(=O)c2c1CCC(C)C", "assay": "cell growth or viability", "IC50 [µM]": 16.1}
{"Compound": "COc1cc([C@@H]2c3cc4c(cc3[C@H](OC(=O)CCCc3ccc(NS(=O)(=O)c5ccccc5Br)cc3)[C@H]3COC(=O)[C@H]23)OCO4)cc(OC)c1OC", "assay": "cell growth or viability, CCK-8", "conditions": "24 h", "IC50 [µM]": "> 100"}
{"note": "A few entries again:"}
{"Compound": "COc1ccc(S(=O)(=O)Nc2ccc(CCCC(=O)O[C@H]3c4cc5c(cc4[C@@H](c4cc(OC)c(OC)c(OC)c4)[C@H]4C(=O)OC[C@@H]43)OCO5)cc2)cc1", "assay": "cell growth or viability, CCK-8", "conditions": "24 h", "IC50 [µM]": 81.2}
